Experimental data gathered from unrelated publications.
Compare with care: the assays were run in different laboratories. ± gives the spread as reported.
OPRM1: Mu-type opioid receptor (OPRM1, Homo sapiens, UniProt P35372)
cyp121: Mycocyclosin synthase (cyp121, Mycobacterium tuberculosis, UniProt P9WPP7)
OPRK1: Kappa-type opioid receptor (OPRK1, Homo sapiens, UniProt P41145)
hly: hly (Listeria monocytogenes, UniProt P13128)
OPRM1 with beta-arrestin-2: Mu-type opioid receptor, with beta-arrestin-2 (OPRM1, Homo sapiens, UniProt P35372)

Sequences of proteins named here, by UniProt entry; tags and fusion partners are left off. A change or cut given only in a name is not applied to a line headed by its entry. Residues count along the entry.
UniProt P35372, whole entry: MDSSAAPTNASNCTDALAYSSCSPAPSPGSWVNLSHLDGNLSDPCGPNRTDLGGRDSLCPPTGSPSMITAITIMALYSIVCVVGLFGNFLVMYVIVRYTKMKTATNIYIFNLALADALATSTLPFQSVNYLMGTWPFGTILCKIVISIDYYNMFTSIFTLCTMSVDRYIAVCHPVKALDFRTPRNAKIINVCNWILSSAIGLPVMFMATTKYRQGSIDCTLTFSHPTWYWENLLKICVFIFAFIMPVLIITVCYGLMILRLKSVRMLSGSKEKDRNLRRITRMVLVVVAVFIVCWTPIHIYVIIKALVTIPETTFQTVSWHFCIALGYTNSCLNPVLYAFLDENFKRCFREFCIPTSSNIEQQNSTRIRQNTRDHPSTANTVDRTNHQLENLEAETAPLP
UniProt P9WPP7, whole entry: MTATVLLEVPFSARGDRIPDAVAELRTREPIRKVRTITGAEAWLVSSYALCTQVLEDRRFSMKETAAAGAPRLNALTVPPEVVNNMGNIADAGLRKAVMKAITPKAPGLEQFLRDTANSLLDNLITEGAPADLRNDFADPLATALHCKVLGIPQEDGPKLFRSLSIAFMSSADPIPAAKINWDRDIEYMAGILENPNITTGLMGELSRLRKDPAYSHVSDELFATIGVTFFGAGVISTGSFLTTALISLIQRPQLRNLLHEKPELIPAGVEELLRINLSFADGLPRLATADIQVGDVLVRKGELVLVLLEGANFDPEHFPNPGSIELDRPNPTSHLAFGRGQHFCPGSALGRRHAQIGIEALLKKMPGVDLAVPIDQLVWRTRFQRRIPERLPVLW
UniProt P41145, whole entry: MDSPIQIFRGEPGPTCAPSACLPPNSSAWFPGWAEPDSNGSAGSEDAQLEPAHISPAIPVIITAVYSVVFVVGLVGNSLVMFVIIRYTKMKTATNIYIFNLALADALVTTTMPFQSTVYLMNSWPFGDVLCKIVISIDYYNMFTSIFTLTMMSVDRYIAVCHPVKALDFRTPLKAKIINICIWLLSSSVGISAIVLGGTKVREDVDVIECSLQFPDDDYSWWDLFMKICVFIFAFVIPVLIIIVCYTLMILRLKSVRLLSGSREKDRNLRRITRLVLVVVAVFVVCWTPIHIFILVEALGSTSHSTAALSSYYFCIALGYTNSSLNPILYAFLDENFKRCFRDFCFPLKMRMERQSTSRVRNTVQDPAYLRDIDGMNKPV
UniProt P06241, whole entry, looked up: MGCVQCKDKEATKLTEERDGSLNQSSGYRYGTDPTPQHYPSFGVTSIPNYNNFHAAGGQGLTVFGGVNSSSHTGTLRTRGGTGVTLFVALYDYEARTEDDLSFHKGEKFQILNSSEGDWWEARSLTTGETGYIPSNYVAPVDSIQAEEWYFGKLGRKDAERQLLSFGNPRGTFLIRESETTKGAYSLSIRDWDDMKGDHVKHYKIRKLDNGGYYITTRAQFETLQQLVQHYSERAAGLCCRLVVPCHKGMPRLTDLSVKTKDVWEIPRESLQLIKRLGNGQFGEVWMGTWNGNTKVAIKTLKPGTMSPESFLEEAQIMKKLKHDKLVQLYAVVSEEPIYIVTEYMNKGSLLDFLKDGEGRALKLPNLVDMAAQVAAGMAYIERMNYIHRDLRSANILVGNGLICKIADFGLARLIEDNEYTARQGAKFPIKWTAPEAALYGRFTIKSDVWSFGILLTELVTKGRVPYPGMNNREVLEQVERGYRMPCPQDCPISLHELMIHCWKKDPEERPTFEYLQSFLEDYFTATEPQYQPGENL
UniProt P06241, whole entry M250P/L253P/T254P, looked up: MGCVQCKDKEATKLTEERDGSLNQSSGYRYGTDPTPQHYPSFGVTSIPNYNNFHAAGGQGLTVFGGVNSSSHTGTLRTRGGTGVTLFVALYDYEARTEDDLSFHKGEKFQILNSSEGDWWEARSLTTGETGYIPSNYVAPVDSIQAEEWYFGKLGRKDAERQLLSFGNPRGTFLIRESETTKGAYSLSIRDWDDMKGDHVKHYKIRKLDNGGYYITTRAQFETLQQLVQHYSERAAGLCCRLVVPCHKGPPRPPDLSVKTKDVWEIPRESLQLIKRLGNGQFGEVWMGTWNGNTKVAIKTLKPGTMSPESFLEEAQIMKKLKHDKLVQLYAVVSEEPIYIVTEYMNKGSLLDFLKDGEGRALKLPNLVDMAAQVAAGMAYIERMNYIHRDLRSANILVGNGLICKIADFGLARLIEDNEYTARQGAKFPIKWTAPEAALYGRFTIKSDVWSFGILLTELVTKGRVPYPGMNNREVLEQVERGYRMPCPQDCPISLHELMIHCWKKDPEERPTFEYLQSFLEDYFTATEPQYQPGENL
UniProt P07948, whole entry Y508F, looked up: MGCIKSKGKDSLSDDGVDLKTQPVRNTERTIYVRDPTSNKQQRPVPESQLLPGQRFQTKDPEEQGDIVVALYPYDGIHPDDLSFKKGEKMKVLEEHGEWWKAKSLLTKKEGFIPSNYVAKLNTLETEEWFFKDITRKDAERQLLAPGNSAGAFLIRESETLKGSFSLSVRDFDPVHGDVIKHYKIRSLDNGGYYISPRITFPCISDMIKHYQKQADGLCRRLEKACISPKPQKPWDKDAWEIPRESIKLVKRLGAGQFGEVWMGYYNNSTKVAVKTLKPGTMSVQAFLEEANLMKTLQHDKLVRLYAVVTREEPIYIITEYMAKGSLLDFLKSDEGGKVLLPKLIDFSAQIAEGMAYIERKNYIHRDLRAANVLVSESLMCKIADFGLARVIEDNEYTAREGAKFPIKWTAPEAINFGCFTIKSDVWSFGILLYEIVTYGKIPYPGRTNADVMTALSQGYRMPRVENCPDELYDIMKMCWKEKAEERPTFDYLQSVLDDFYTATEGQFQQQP
UniProt Q8WSF8, 18-236 Y72W limits assumed: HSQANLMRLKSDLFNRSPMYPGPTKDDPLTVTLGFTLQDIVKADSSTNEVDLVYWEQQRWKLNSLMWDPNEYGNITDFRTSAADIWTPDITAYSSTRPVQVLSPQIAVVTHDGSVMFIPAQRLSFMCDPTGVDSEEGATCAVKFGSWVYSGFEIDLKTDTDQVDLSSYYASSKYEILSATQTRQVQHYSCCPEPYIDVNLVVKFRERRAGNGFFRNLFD
UniProt P9WGR1, whole entry: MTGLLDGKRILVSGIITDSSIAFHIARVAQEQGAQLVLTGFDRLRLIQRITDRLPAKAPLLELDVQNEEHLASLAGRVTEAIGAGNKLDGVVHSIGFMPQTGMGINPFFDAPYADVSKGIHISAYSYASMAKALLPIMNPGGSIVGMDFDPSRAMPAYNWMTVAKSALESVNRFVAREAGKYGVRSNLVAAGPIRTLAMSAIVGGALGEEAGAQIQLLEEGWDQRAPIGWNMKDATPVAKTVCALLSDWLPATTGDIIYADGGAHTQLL
UniProt P30872, whole entry: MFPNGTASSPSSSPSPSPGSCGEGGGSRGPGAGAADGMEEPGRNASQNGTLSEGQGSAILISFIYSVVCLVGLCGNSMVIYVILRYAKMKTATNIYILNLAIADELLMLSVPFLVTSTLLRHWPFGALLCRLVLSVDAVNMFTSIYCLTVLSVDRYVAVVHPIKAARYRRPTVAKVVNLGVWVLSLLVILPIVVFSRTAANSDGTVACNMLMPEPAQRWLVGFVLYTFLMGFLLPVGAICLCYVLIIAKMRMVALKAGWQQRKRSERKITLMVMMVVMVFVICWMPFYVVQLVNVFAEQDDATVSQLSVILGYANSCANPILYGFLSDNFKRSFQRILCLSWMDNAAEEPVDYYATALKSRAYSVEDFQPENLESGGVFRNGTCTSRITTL
UniProt P23977, whole entry: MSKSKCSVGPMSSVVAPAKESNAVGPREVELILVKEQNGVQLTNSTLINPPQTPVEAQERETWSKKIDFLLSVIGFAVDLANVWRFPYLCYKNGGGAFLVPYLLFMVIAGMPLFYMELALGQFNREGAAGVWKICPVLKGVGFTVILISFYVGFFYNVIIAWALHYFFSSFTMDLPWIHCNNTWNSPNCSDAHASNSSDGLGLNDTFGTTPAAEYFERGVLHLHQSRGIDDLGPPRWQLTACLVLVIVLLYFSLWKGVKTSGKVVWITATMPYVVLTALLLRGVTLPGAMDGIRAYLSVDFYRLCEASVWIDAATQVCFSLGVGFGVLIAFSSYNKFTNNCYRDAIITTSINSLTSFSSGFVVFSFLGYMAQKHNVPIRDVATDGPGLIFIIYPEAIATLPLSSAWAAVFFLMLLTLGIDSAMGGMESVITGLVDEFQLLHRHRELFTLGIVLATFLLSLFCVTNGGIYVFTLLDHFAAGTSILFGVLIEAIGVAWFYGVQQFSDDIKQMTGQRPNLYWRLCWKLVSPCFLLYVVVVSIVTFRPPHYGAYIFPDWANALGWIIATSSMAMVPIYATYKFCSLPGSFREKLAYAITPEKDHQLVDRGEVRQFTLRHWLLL
UniProt P14867, 28-456 L291T limits assumed: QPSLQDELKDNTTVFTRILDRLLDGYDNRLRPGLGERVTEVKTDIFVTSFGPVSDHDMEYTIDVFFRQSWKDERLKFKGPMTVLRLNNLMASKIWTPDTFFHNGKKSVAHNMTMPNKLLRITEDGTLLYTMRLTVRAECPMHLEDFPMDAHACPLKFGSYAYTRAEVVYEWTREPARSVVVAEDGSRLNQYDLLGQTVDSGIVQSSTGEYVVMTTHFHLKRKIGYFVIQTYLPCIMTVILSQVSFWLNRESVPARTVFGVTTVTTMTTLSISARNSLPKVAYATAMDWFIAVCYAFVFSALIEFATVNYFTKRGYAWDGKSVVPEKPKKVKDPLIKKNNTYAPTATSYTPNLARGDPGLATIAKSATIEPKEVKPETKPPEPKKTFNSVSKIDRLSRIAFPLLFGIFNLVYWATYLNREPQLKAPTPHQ
UniProt P28472, 26-473 limits assumed, stated change not applied: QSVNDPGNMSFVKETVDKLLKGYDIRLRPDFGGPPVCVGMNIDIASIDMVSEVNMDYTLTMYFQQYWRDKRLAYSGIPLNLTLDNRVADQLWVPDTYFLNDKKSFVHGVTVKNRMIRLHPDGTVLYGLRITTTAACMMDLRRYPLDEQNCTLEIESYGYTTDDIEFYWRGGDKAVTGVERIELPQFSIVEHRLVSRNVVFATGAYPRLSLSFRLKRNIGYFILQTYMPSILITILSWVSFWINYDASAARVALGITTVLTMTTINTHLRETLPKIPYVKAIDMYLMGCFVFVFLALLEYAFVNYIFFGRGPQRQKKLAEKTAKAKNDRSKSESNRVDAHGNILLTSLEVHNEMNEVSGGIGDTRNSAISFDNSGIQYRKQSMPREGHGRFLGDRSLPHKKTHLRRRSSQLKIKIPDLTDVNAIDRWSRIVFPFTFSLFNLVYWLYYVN

For `COC(=O)[C@@H]1C=C(OC(=O)CCc2ccccc2)C(=O)[C@H]2[C@@]1(C)CC[C@H]1C(=O)O[C@H](c3ccoc3)C[C@]21C`, the EC50 was 400 ± 100 nM (OPRM1; forskolin-induced cAMP inhibition, agonist; CHO-K1 expressing human MOR).
For `CCC(c1ccc(-c2cc(F)ccc2F)cc1)n1ccnc1` (centres unmarked), the Kd was 7500 ± 860 nM (cyp121; binding).
For `COC(=O)[C@@H]1C=C(OC(=O)c2cccc(CO)c2)C(=O)[C@H]2[C@@]1(C)CC[C@H]1C(=O)O[C@H](c3ccoc3)C[C@]21C`, the EC50 was > 10000 nM (OPRK1; forskolin-induced cAMP inhibition, agonist; CHO-K1 expressing human KOR).
For `CCC(c1ccc(-c2ccc3ccccc3c2)cc1)n1ccnc1` (centres unmarked), the Kd was 1400 ± 200 nM (cyp121; binding).
`Nc1ncnc2c1c(-c1cnc3[nH]ccc3c1)nn2C1CCCC1` gave a Ki of 7.5 nM (FYN (Homo sapiens, UniProt P06241, L253P/M250P/T254P); inhibitor).
For `COC(=O)[C@@H]1C=C(OC(=O)c2ccc(O)c(Br)c2)C(=O)[C@H]2[C@@]1(C)CC[C@H]1C(=O)O[C@H](c3ccoc3)C[C@]21C`, the EC50 was > 10000 nM (OPRK1; forskolin-induced cAMP inhibition, agonist; CHO-K1 expressing human KOR).
For `c1ccc2c(c1)Cc1cc(Cn3ccnc3)ccc1-2`, the Kd was 6000 ± 1100 nM (cyp121; binding).
The Ki of `CC(C)n1nc(-c2cccc(O)c2)c2c(N)ncnc21` is reported as 320 nM (LYN (Homo sapiens, UniProt P07948, Y508F); inhibitor).
`Cn1c(=O)cc(OCc2cn(C3C[C@H]4CC[C@@H](C3)[N+]4(C)C)nn2)c2ccccc21` (some centres unmarked) gave a Kd of 17 ± 4.8 nM (Soluble acetylcholine receptor (Aplysia californica, UniProt Q8WSF8, Y72W); binding, scintillation proximity; with: [3H]epibatidine).
`Fc1ccc(-c2ccc3c(Cn4ccnc4)c[nH]c3c2)cc1` has a Kd of 5900 ± 2000 nM (cyp121; binding).
With `N#Cc1ccccc1Oc1ccc(Cn2cc(C3CCCCC3)nn2)cc1O` the Ki was 190 ± 37 nM (inhA (Mycobacterium tuberculosis, UniProt P9WGR1); enzyme activity, slow-onset inhibitor; 20 °C, final EI* complex).
With `CC(=O)NC1C(O)CC(OC(CO)C(O)C2OC(OC(CO)C(O)C3OC(OC4C(O)C(CO)OC(OC5C(CO)OC(O)C(O)C5O)C4O)(C(=O)O)CC(O)C3NC(C)=O)(C(=O)O)CC(O)C2NC(C)=O)(C(=O)O)OC1C(O)C(O)CO` (centres unmarked) the Kd was 4.3 nM (hly; binding; pH 7).
`COC(=O)[C@@H]1C=C(OC(=O)Cc2ccccc2)C(=O)[C@H]2[C@@]1(C)CC[C@H]1C(=O)O[C@H](c3ccoc3)C[C@]21C` gave an EC50 of 187 ± 29 nM (OPRK1; forskolin-induced cAMP inhibition, agonist; CHO-K1 expressing human KOR).
For `CC(=O)NC1C(O)CC(OC(CO)C(O)C2OC(OC(CO)C(O)C3OC(OC4C(O)C(OC5C(CO)OC(O)C(O)C5O)OC(CO)C4OC4OC(CO)C(O)C(OC5OC(CO)C(O)C(O)C5O)C4NC(C)=O)(C(=O)O)CC(O)C3NC(C)=O)(C(=O)O)CC(O)C2NC(C)=O)(C(=O)O)OC1C(O)C(O)CO` (centres unmarked), the Kd was 97.1 nM (hly; binding; pH 7).
The Kd of `c1ccc(-c2ccc(Cn3ccnc3)o2)cc1` is reported as 33700 ± 5600 nM (cyp121; binding).
`COC(=O)[C@@H]1C=C(OC(=O)c2ccc(O)cc2)C(=O)[C@H]2[C@@]1(C)CC[C@H]1C(=O)O[C@H](c3ccoc3)C[C@]21C` has an EC50 of 21 ± 4 nM (OPRM1 with beta-arrestin-2; β-arrestin-2 recruitment, agonist, PathHunter; CHO-K1).
For `CN1CC[C@]23c4c5ccc(O)c4O[C@H]2c2ncc(-c4ccc(Cl)cc4)cc2C[C@@]3(OCCCc2ccccc2)[C@H]1C5`, the EC50 was 0.2 ± 0.01 nM (OPRM1; agonist).
`COC(=O)[C@@H]1C=C(OC(=O)c2ccc(O)c(F)c2)C(=O)[C@H]2[C@@]1(C)CC[C@H]1C(=O)O[C@H](c3ccoc3)C[C@]21C` gave an EC50 of 0.6 ± 0.2 nM (OPRM1; forskolin-induced cAMP inhibition, agonist; CHO-K1 expressing human MOR).
The Kd of `CCC(c1ccc(-c2cscc2C)cc1)n1ccnc1` (centres unmarked) is reported as 9400 ± 660 nM (cyp121; binding).
The EC50 of `CC(C)C[C@H](NC(=O)[C@@H]1C[C@@H](O)CN1C(=O)[C@@H]1CSSC[C@H](NC(=O)[C@@H](NC(=O)[C@@H]2CCCN2)C(C)C)C(=O)N[C@H](Cc2c[nH]c3ccccc23)C(=O)N[C@@H](CCCCN)C(=O)N[C@@H](Cc2ccccc2)C(=O)NCC(=O)N1)C(=O)O` is reported as 3800 nM (SSTR1 (Homo sapiens, UniProt P30872); β-arrestin recruitment, agonist).
`Cc1ccc(CCN)cc1` gave an EC50 of 271 ± 17 nM (Slc6a3 (Rattus norvegicus, UniProt P23977); dopamine release, releaser; rat brain synaptosomes).
The EC50 of `COC(=O)[C@@H]1C=C(OC(=O)c2cccc(O)c2)C(=O)[C@H]2[C@@]1(C)CC[C@H]1C(=O)O[C@H](c3ccoc3)C[C@]21C` is reported as 40 ± 10 nM (OPRM1 with beta-arrestin-2; β-arrestin-2 recruitment, agonist, PathHunter; CHO-K1).
The Kd of `CCC(c1ccc(-c2ccc(F)c(F)c2)cc1F)n1ccnc1` (centres unmarked) is reported as 5000 ± 1500 nM (cyp121; binding).
`CC(C)n1nc(-c2ccc3c(c2)OCO3)c2c(N)ncnc21` has a Ki of 740 nM (FYN (Homo sapiens, UniProt P06241, G531I/P530I/Q529E); inhibitor).
`CCC(c1ccc(-c2ccc(F)c(F)c2)cc1)n1ccnc1` (centres unmarked) has a Kd of 4100 ± 910 nM (cyp121; binding).
`CCOC(=O)c1cncn1C(C)c1c(F)c(F)c(F)c(F)c1F` (racemic) has an EC50 of 7600 ± 600 nM (GABA-A receptor alpha-1/beta-3, with gamma-2 subunit (GABRA1/GABRB3, Homo sapiens, UniProt P14867+P28472, L291T); ion current, agonist, two-electrode voltage clamp; Xenopus laevis oocytes; baseline: 100 µM GABA).
